Measurements pooled from the literature.
Parts stem from different laboratories: compare values within a part only. “And” joins repeats or separate records; there may be more than shown.
Chain of UniProt P47898 (whole entry, looked up): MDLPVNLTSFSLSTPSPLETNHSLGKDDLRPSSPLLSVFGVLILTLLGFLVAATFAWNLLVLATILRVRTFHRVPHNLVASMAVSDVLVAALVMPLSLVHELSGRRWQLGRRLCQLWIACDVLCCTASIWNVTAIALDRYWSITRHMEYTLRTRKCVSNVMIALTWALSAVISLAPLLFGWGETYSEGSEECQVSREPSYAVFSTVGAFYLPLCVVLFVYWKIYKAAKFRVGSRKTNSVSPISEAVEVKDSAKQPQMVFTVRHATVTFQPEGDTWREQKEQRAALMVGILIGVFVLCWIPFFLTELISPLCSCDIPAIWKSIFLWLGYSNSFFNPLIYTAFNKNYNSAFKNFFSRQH
Chain of UniProt P28222 (whole entry, looked up): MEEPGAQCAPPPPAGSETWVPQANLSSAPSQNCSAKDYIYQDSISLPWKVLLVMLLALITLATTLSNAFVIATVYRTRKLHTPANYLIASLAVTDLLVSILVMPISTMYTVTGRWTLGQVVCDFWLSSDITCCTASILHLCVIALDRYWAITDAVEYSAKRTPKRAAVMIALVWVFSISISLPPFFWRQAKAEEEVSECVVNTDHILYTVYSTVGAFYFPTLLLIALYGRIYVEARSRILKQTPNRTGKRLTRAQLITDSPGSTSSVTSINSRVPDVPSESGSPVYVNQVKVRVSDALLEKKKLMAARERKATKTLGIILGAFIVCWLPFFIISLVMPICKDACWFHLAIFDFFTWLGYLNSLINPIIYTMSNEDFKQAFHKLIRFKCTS
Chain of UniProt P28566 (whole entry, looked up): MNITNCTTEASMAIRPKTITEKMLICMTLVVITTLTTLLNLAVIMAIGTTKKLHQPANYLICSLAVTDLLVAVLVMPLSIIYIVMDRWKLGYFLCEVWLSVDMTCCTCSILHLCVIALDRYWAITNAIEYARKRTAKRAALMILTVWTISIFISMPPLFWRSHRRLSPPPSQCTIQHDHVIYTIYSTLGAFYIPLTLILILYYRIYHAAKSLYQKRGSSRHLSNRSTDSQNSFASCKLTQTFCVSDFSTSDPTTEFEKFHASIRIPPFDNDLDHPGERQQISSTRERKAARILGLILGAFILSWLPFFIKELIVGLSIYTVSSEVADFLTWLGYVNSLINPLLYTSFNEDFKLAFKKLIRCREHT

Set 1
Structure (SMILES): CN(C)C(=O)c1sc2nc(N3CCC(S(C)(=O)=O)CC3)cc(C(F)(F)F)c2c1N
Read-out: ligand displacement
Concentration: 10 µM
| target | inhibition [%] |
| --- | --- |
| 5-hydroxytryptamine receptor 1E (HTR1E, Homo sapiens, UniProt P28566) | 2.45 |
| 5-hydroxytryptamine receptor 1B (HTR1B, Homo sapiens, UniProt P28222) | -10.7 |
| 5-hydroxytryptamine receptor 5A (HTR5A, Homo sapiens, UniProt P47898) | 5.35 |

Set 2
Cell line: mouse MPNST tumor cells
Method: high-content immunofluorescence imaging
Item: nuclear SOX9
Concentration: 10 µM
Time: 12 h
Setting: mean of 2 replicates
Baseline: DMSO control
Direction: higher = more nuclear SOX9
| Structure (SMILES) | nuclear SOX9 intensity |
| --- | --- |
| CCCC[S+]([O-])c1sc2nc(-c3cccs3)cc(-c3ccccc3)c2c1N (stereo not shown) | 107 % of DMSO |
| N#C[C@@H]1C[C@@H]2C[C@@H]2N1C(=O)[C@@H](N)C12CC3CC(CC(O)(C3)C1)C2 | 123 % of DMSO and 90.9 % of DMSO |
| CN1C(C(=O)Nc2ccccn2)=C(O)c2sccc2S1(=O)=O | 101 % of DMSO |

Set 3
Host: mouse
Matrix: microsomes or S9
Concentration: 2 µM
Time: 0.5 h
| Compound | remaining compound [%] |
| --- | --- |
| CCCc1cc(-c2nc(Cc3nn4c(C(C)C)nnc4s3)cs2)ccn1 | > 99 |
| COc1ccc(/C=C/c2nnc(-c3ccc(Cl)cc3Cl)o2)cc1 | 51.7 |
| O=C(Cn1nc2c(cc1=O)CCCCC2)Nc1nc[nH]n1 | 89.2 |

Mixed results
| Compound | test system | conditions | quantity | result |
| --- | --- | --- | --- | --- |
| CC(C)n1cnc(-c2ccc(F)cc2)c1-c1ncc(C(=O)Nc2ccc(N3CCN(C)CC3)cc2)[nH]1 | human, idiopathic pulmonary fibrosis | 30 mg once daily, trial, treatment-emergent | grade 5 ventricular extrasystoles | 0% |

Repeated from above (set 2):
| Structure (SMILES) | nuclear SOX9 intensity |
| --- | --- |
| CN1C(C(=O)Nc2ccccn2)=C(O)c2sccc2S1(=O)=O | 101 % of DMSO |
